Published values pooled from the literature.
Lines come from different studies, so protocols differ. ± marks the error that the study gave.

The AUC(0-24h) of `Cc1ccc(-c2ncc(Cl)cc2-c2ccc(S(C)(=O)=O)cc2)cn1` is reported as 22200 ng·h/mL (patients after hip surgery, plasma; oral, 120 mg).
`CN(C)C(=O)c1cc2cnc(Nc3ccc(N4CCNCC4)cn3)nc2n1C1CCCC1` gave an AUC(0-24h) of 42600 ng·h/mL (Japanese cancer patients, plasma; oral, 600 mg, steady state, with proton pump inhibitor, geometric mean).
With `COc1ccc2[nH]c([S+]([O-])Cc3ncc(C)c(OC)c3C)nc2c1` (stereo not drawn) the AUC(0-24h) was 3140 ng·h/mL (LC-MS/MS; healthy adults, plasma; oral, 40 mg/day for 7 days, day 25, steady state, mean, together with: icosapent ethyl 4 g/day).
For `C#C[C@]1(O)CC[C@H]2[C@@H]3CCc4cc(O)ccc4[C@H]3CC[C@@]21C`, the AUC(0-24h) ratio was 1.11 (postmenopausal women with type 2 diabetes; oral, dose not given, together with: semaglutide steady state; relative to: with over without semaglutide).
With `CNC(=O)c1cc(Oc2ccc(NC(=O)Nc3ccc(Cl)c(C(F)(F)F)c3)c(F)c2)ccn1` the AUC(0-24h) was 55900 ng·h/mL (metastatic colorectal cancer patients, plasma; oral, 120 mg once daily, steady state, alone).
`CC(C)(C(=O)NCC(F)(F)C(F)(F)F)C(=O)N[C@@H]1C(=O)Nc2ccccc2-c2ccccc21` has an AUC(0-24h) ratio of 14% (refers to: total drug; advanced breast cancer patients, plasma; oral, median; relative to: combination over alone).
`COc1cc2c(cc1Cc1cccc(Cl)c1F)c(=O)c(C(=O)O)cn2[C@H](CO)C(C)C` gave an AUC(0-24h) of 14000 ng·h/mL (rhesus macaque, plasma; oral, 30 mg/kg, together with: FTC 20 mg/kg, TAF, cobicistat 30 mg/kg).
The AUC(0-24h) of `O=C(c1cc(Cl)c(O)c(Cl)c1)N1CS(=O)(=O)c2ccccc21` is reported as 1080 ± 213 ng·h/mL (healthy Chinese adults, fasted, plasma; oral, 1 mg single dose).
With `Br.Cc1ccc(Sc2ccccc2N2CCNCC2)c(C)c1` the AUC(0-24h) was 256 ng·h/mL (healthy adults, plasma; 10 mg at steady state, day 16, together with: omeprazole 40 mg single dose).
